Measurements from different studies.
Numbers after ± are the reported error.
Sequence of UniProt P41597 (whole entry, looked up): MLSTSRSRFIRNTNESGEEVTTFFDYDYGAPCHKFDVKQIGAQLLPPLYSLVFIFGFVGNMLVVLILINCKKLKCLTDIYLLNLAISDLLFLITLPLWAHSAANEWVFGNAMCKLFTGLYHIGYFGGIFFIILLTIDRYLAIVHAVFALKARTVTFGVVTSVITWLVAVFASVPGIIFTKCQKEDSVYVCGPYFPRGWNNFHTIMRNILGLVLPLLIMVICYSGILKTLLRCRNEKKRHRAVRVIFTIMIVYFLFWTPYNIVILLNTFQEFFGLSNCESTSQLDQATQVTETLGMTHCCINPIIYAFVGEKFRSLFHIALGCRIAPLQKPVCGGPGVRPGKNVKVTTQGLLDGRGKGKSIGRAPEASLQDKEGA
Sequence of UniProt P41143 (whole entry, unmodified, looked up): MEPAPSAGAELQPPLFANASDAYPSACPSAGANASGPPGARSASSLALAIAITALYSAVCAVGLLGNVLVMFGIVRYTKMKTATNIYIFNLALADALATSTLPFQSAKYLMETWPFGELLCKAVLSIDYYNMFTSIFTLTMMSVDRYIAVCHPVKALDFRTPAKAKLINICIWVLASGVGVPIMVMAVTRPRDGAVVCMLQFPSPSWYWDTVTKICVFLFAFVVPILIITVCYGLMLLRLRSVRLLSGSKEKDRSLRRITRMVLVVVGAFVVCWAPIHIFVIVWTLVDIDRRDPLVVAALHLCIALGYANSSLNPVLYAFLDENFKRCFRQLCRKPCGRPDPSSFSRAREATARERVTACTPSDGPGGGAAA
Sequence of UniProt Q96SW2 (whole entry, looked up): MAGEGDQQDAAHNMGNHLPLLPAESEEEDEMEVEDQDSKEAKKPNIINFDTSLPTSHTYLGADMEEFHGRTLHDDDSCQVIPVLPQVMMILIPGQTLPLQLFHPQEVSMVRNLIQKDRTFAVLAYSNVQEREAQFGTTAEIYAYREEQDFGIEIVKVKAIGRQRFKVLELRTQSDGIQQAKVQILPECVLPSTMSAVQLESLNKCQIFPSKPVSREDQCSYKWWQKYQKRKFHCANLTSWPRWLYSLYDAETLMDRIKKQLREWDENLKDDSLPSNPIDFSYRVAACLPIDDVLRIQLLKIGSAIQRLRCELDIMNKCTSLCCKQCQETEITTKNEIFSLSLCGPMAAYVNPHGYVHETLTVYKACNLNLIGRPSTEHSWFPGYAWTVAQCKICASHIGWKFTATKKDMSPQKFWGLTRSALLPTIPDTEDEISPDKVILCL
Sequence of UniProt P16885 (whole entry, looked up): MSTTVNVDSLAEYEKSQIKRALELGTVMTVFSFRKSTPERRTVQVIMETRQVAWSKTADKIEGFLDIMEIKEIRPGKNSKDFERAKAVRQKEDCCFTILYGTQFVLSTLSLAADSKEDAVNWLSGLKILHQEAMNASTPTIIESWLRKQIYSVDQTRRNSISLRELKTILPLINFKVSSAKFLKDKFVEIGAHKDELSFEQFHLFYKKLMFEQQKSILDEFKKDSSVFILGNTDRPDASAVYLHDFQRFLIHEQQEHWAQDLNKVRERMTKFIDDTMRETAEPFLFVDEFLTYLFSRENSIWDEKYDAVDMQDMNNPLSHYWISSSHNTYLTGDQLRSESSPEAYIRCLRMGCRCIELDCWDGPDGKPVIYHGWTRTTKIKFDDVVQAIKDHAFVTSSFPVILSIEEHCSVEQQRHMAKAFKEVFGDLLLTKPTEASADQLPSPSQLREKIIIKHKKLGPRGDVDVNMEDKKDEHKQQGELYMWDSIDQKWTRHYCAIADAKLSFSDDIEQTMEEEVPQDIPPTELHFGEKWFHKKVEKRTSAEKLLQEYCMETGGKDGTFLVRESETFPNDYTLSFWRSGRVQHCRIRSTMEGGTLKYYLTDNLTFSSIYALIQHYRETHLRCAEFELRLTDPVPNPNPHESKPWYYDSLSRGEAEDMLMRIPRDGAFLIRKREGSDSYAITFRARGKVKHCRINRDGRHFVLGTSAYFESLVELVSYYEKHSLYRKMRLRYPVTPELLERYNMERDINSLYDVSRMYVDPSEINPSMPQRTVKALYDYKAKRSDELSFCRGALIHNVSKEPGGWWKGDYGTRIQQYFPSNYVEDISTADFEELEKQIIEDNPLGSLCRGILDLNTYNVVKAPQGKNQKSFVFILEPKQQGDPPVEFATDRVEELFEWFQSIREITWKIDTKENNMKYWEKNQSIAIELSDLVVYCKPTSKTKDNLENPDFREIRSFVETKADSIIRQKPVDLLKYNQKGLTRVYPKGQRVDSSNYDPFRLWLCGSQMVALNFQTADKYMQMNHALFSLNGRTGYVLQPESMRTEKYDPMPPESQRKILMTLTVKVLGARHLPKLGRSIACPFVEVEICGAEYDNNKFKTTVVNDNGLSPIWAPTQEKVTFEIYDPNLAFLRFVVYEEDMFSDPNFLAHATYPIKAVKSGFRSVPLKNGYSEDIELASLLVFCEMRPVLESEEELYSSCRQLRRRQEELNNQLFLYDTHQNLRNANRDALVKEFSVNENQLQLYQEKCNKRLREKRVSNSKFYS
Sequence of UniProt P07949 (whole entry, looked up): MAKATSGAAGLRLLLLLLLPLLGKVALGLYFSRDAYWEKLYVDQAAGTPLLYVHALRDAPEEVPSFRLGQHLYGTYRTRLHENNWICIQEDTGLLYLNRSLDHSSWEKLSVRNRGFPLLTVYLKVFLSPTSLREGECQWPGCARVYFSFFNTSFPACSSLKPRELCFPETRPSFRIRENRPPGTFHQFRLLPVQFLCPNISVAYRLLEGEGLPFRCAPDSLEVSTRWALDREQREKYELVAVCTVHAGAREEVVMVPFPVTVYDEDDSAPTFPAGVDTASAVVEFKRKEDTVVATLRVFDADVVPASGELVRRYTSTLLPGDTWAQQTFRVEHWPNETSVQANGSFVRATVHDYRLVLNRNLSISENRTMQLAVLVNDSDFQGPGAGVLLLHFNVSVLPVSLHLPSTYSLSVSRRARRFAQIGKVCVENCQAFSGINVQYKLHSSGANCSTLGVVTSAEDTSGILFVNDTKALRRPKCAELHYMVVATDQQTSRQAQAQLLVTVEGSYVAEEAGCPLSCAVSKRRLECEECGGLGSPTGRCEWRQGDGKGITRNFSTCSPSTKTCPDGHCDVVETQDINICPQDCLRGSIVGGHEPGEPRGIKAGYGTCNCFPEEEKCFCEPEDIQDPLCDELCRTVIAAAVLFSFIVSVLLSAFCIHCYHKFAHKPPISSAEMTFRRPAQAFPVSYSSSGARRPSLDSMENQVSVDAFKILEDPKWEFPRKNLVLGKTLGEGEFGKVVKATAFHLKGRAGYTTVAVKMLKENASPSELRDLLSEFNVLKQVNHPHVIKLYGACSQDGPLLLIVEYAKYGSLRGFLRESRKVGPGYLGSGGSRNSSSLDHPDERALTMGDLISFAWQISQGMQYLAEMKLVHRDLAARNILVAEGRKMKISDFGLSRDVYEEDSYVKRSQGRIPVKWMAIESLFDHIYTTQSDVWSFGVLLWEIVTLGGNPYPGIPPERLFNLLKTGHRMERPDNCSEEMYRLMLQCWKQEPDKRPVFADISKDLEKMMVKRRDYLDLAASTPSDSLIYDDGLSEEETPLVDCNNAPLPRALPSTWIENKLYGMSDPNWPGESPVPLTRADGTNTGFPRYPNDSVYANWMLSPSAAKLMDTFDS
Sequence of UniProt Q9VK33 (whole entry, looked up): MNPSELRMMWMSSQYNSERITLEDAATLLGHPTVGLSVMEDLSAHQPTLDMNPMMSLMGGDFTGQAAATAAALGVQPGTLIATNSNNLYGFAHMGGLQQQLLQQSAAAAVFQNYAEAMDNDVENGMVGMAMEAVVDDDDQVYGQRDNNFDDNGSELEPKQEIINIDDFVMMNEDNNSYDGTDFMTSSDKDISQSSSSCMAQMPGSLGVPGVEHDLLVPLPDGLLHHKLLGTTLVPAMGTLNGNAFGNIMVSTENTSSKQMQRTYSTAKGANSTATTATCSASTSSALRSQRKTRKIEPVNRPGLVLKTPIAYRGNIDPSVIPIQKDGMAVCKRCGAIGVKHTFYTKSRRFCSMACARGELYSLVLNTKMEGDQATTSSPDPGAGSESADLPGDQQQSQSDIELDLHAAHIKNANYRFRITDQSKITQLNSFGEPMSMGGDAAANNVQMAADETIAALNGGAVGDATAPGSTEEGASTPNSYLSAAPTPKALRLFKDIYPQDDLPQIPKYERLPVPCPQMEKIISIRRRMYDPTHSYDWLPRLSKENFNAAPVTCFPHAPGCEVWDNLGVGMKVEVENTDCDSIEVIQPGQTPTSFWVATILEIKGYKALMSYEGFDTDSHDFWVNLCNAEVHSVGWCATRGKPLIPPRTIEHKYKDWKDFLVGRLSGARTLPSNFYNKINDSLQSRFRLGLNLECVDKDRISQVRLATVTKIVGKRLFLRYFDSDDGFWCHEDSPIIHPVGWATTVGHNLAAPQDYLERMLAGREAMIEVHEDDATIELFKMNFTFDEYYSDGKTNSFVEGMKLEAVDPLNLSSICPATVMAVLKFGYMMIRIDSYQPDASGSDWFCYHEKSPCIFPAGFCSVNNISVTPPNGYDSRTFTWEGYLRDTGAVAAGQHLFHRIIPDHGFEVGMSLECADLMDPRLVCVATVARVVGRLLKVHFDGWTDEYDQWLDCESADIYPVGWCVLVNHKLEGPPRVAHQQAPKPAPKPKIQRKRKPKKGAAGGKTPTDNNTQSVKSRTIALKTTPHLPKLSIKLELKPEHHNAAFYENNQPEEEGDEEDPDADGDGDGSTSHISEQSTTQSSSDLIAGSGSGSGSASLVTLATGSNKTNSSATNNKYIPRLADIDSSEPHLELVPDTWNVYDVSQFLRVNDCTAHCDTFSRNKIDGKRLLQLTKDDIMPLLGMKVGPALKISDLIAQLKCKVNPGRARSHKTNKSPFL
Sequence of UniProt P10997 (whole entry, looked up): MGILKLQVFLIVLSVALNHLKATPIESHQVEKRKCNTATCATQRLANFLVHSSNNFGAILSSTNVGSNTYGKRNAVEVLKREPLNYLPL

CC(C)(C)C(=O)OCOP(=O)(OCOC(=O)C(C)(C)C)C1CCCN(O)C1=O (stereo not shown)
GI50 (UO-31): 0.306 µM

O=C(N[C@@H]1c2ccccc2C[C@H]1N1CCCC1)c1ccc(-c2ccnc3[nH]ccc23)nc1
Kd (RET (Homo sapiens, UniProt P07949); binding, competition with immobilised ligand): 0.315 µM

C=CC1CN(Cc2ccccn2)C(=O)C2CCCC1N2[S+]([O-])c1cc(Cl)cc(Cl)c1 (stereo not shown)
Kd (uncharacterized protein, residues 23-253 (Pseudomonas aeruginosa, UniProt Q9HYX8); binding, competitive fluorescence polarization; 30 min, protein 40 nM, together with: fluorescent tracer 1 nM): 3.69 ± 0.35 µM

CCN(CC)C(=O)c1ccc(C(c2cccc(O)c2)N2CC(C)N(Cc3ccccc3)CC2C)cc1 (stereo not shown)
EC50 (OPRD1 (Homo sapiens, UniProt P41143, K214A); agonist): 0.00015 ± 3e-05 µM

COc1ccccc1-c1n[nH]c2nc(NC3CCN(C(=O)Cc4ccc(F)cc4F)CC3)ncc12
relative abundance (bead binding, competition bead pull-down, measured: LINJ.36.1320; Leishmania donovani axenic amastigote extract; 10 µM; reference: vehicle): 1.02

NCC(O)(c1ccccc1)c1ccccc1
Kd (Beta-lactamase (ampC, Escherichia coli K-12, UniProt P00811)): 2200 µM

CC[C@H](C)[C@H](NC(=O)[C@H](CCCCNC(=O)CN(CCNC(=O)CN(CCNC(=O)CN(CCNC(=O)CN(CCNC(=O)[C@H](CCCNC(=N)N)NC(C)=O)C(=O)Cn1ccc(N)nc1=O)C(=O)Cn1cnc2c(=O)[nH]c(N)nc21)C(=O)Cn1cnc2c(=O)[nH]c(N)nc21)C(=O)Cn1ccc(N)nc1=O)NC(=O)[C@H](C)NC(=O)[C@H](CCCNC(=N)N)NC(=O)[C@H](CCCCN)NC(=O)[C@H](CCC(N)=O)NC(=O)[C@H](CCC(N)=O)NC(=O)[C@H](CC(N)=O)NC(=O)[C@@H](NC(=O)[C@H](CC(C)C)NC(=O)[C@H](CC(N)=O)NC(=O)[C@@H]1CCCN1C(=O)[C@H](CC(=O)O)NC(=O)[C@H](CC(C)C)NC(=O)[C@H](C)NC(=O)[C@H](CS)NC(=O)[C@H](CCCC(=O)NCCN(CC(=O)NCCN(CC(=O)NCCN(CC(=O)NCCN(CC(N)=O)C(=O)Cn1cnc2c(=O)[nH]c(N)nc21)C(=O)Cn1ccc(N)nc1=O)C(=O)Cn1ccc(N)nc1=O)C(=O)Cn1cnc2c(=O)[nH]c(N)nc21)NC(=O)[C@H](Cc1c[nH]c2ccccc12)NC(=O)[C@H](Cc1ccc(O)cc1)NC(=O)[C@H](CCCNC(=N)N)NC(=O)[C@H](CC(N)=O)NC(=O)[C@H](CCCNC(=N)N)NC(=O)[C@H](CC1CCCCC1)NC(=O)[C@H](CCC(=O)O)NC(=O)[C@H](CCCCN)NC(C)=O)[C@@H](C)O)C(=O)N[C@@H](CCCNC(=N)N)C(=O)N[C@@H](CO)C(=O)N[C@H](C(=O)N[C@@H](Cc1ccc(O)cc1)C(=O)N[C@@H](CCC(=O)O)C(=O)N[C@@H](CCC(=O)O)C(=O)NCC(=O)N[C@@H](CCC(=O)O)C(N)=O)[C@@H](C)CC
Kd (ERBB2 (Homo sapiens, UniProt P04626); binding, SPR): 0.0051 µM

CC(=O)N[C@@H](CO)C(=O)N[C@@H](Cc1ccccc1)C(=O)N[C@@H](CCC(=O)O)C(=O)N[C@@H](Cc1ccccc1)C(=O)N1CCC[C@H]1C(=O)N1CCC[C@H]1C(=O)N1CC[C@@H]2C=C[C@H]3CC[C@@H](C(=O)N[C@H](C(=O)N[C@@H](CCC(=O)O)C(=O)N[C@@H](CC(=O)O)C(=O)N[C@@H](CCC(=O)O)C(=O)N[C@@H](CC(C)C)C(N)=O)[C@@H](C)O)N3C(=O)[C@H]21
Kd (VASP (Homo sapiens, UniProt P50552); binding, fluorescence): 5.7 µM

CNCCCC[C@H](NC(=O)[C@H](CCCNC(=N)N)NC(=O)[C@H](C)NC(=O)[C@H](C)NC(=O)[C@H](CCCCN)NC(=O)[C@@H](NC(=O)[C@H](C)NC(=O)[C@H](CC(C)C)NC(=O)[C@@H](N)CCC(N)=O)[C@@H](C)O)C(=O)N[C@@H](CO)C(=O)N[C@@H](C)C(=O)N1CCC[C@H]1C(=O)N[C@@H](C)C(=O)N[C@H](C(=O)NCC(=O)NCC(=O)N[C@H](C(N)=O)C(C)C)[C@@H](C)O
Kd (Polycomb protein Sfmbt (Sfmbt, Drosophila melanogaster, UniProt Q9VK33); fluorescence polarization; pH 8.0): 10.3 µM

CC(C)C[C@H](NC(=O)[C@@H]1CCCN1C(=O)[C@H](C)NC(=O)[C@H](CCC(=O)O)NC(=O)[C@@H](NC(=O)[C@@H](N)CC(C)C)[C@@H](C)O)C(=O)N[C@H]1CC(=O)NC1=O
Kd (Protein cereblon, with DDB1 (CRBN, Homo sapiens, UniProt Q96SW2); binding): 0.0564 µM

CSCC[C@@H]1NC(=O)[C@H]([C@@H](C)O)NC(=O)[C@H](CC(C)C)NC(=O)[C@H](Cc2c[nH]c3ccccc23)NC(=O)CNC(=O)[C@H](C)NC(=O)[C@H](CO)NC(=O)[C@@H](NC(=O)[C@H](CCCCN)NC(=O)[C@H](CC(=O)O)NC(=O)[C@H](CO)NC(C)=O)CSCCC(=O)N2CN3CN(C2)C(=O)CCSC[C@@H](C(=O)N2CCC[C@H]2C(=O)N[C@@H](CO)C(=O)N[C@@H](Cc2c[nH]cn2)C(N)=O)NC(=O)[C@H](CC(C)C)NC(=O)[C@H](CC(N)=O)NC(=O)[C@H](CC(C)C)NC(=O)[C@H](CCC(N)=O)NC(=O)[C@H](CCCCN)NC(=O)[C@H](CSCCC3=O)NC1=O
Kd (CD274 (Homo sapiens, UniProt Q9NZQ7); binding, SPR): 0.00429 µM

CC[C@H](C)[C@H](NC(=O)[C@H](C)NC(=O)CNC(=O)[C@H](Cc1ccccc1)NC(=O)[C@H](CC(N)=O)NC(=O)[C@H](CC(N)=O)NC(=O)[C@H](CO[C@@H]1O[C@H](CO)[C@@H](O)[C@H](O)[C@H]1NC(C)=O)NC(=O)[C@H](CO)NC(=O)[C@H](Cc1c[nH]cn1)NC(=O)[C@@H](NC(=O)[C@H](CC(C)C)NC(=O)[C@H](Cc1ccccc1)NC(=O)[C@H](CC(N)=O)NC(=O)[C@H](C)NC(=O)[C@@H](N)CC(C)C)C(C)C)C(=O)N[C@@H](CC(C)C)C(N)=O
Kd (IAPP (Homo sapiens, UniProt P10997); binding, SPR): 169 ± 7.4 µM

O=C1NC2(CC2)COc2ncc(F)cc2[C@H]2COCCN2c2ccn3ncc1c3n2
pancreatic amylase activity (Sprague-Dawley rat, male, serum; oral, 20 mg/kg/day, 4 weeks daily, end of treatment): 1840 ± 514 U/L

CS(C)(=O)=Nc1ccc(-c2ccc(-c3nc4cc(O[C@@H]5CO[C@H]6[C@@H]5OC[C@H]6O)[nH]c4cc3F)cc2)cc1
inhibition (CCR2 (Homo sapiens, UniProt P41597); calcium signal, antagonist; 10 µM): 0%

CC[C@H](C)[C@H](NC(=O)[C@H](CC(=O)O)NC(=O)[C@H](CCCNC(=N)N)NC(=O)[C@@H](NC(=O)c1ccc2c(c1)C(=O)OC21c2ccc(N(C)C)cc2Oc2cc(N(C)C)ccc21)[C@@H](C)O)C(=O)N[C@@H](Cc1ccc(O)cc1)C(=O)N[C@@H](CCC(=O)O)C(=O)N[C@H](C(=O)N[C@@H](CC(=O)O)C(=O)N[C@@H](Cc1ccc(O)cc1)C(=O)N[C@@H](Cc1ccc(OP(=O)(O)O)cc1)C(=O)N[C@@H](CCCNC(=N)N)C(=O)N[C@@H](CCCCN)C(=O)NCC(=O)NCC(=O)N[C@@H](CCCCN)C(=O)NCC(=O)N[C@@H](CC(C)C)C(=O)N[C@@H](CC(=O)O)C(=O)O)[C@@H](C)O
Kd (1-phosphatidylinositol 4,5-bisphosphate phosphodiesterase gamma-2, SH2 domain (PLCG2, Homo sapiens, UniProt P16885); binding): 1.6 µM

N=C(N)NCCC[C@H](NC(=O)CNC(=O)[C@@H](N)CCCCN)C(=O)N[C@@H](CCCNC(=N)N)C(=O)N[C@@H](CCCNC(=N)N)C(=O)N[C@@H](CCCNC(=N)N)C(=O)N[C@@H](CCCNC(=N)N)C(=O)N[C@@H](Cc1c[nH]cn1)C(=O)N[C@@H](Cc1c[nH]cn1)C(=O)N[C@@H](Cc1c[nH]cn1)C(=O)N[C@@H](Cc1c[nH]cn1)C(=O)N[C@@H](CCCNC(=N)N)C(=O)N[C@@H](CCCNC(=N)N)C(=O)N[C@@H](CCCNC(=N)N)C(=O)N[C@@H](CCCNC(=N)N)C(=O)N[C@@H](CCCNC(=N)N)C(=O)N[C@@H](Cc1c[nH]cn1)C(=O)N[C@@H](Cc1c[nH]cn1)C(=O)N[C@@H](Cc1c[nH]cn1)C(=O)N[C@@H](Cc1c[nH]cn1)C(=O)NCC(=O)O
Kd (Collagen alpha-1(II) chain (COL2A1, Homo sapiens, UniProt P02458); binding, SPR; PBS): 4.57 µM

For quick reference, copied from above:
NCC(O)(c1ccccc1)c1ccccc1
Kd (Beta-lactamase (ampC, Escherichia coli K-12, UniProt P00811)): 2200 µM
